Measured values of several laboratories.
± marks the error that the study gave.

SMILES | target or system | test | system | conditions | quantity | result
O=C(/C=C/c1ccc(O)c(O)c1/C=C/c1ccc(O)c(O)c1)O[C@H](Cc1ccc(O)c(O)c1)C(=O)O | Severe acute respiratory syndrome coronavirus 2 | cytopathic effect | Vero C1008 | 25 µM | inhibition | 0%
Cn1cnc(Cn2c(=O)[nH]/c(=N\c3cc4cn(C)nc4cc3Cl)n(Cc3cc(F)c(F)cc3F)c2=O)n1 | Severe acute respiratory syndrome coronavirus 2 | viral replication | Vero C1008 | 4.167 µM | inhibition | 100%
Cc1cc(NC(=O)c2cc3c(=O)n4cccc(C)c4nc3n2C)ccc1Br | Severe acute respiratory syndrome coronavirus 2 | viral replication, inhibitor, qPCR | Vero C1008 | 10 µM | inhibition | 95.6%
CC1=C(/C=C/C(C)=C/C=C/C(C)=C/C(=O)Nc2ccc(O)cc2)C(C)(C)CCC1 | Severe acute respiratory syndrome coronavirus 2 | viral replication, inhibitor | – | 2.5 µM | inhibition | ~15%
Nc1ncnc2c([C@@H]3N[C@H](CO)[C@@H](O)[C@H]3O)c[nH]c12 | Japanese encephalitis virus | viral replication, inhibitor | Vero 76 | 29.6 µM | inhibition | 24.6%
CC(=O)c1cc([N+](=O)[O-])c(Sc2cccc(Cl)c2Cl)s1 | Replicase polyprotein 1ab, main protease (rep, Severe acute respiratory syndrome coronavirus 2, UniProt P0DTD1) | viral replication, Gluc reporter | SARS-CoV-2 | 20 µM | inhibition | -6.74%
CC(C)OC(=O)[C@H](C)N[P@](=O)(OC[C@H]1O[C@@H](n2ccc(=O)[nH]c2=O)[C@](C)(F)[C@@H]1O)Oc1ccccc1 | Severe acute respiratory syndrome coronavirus 2 | viral replication, inhibitor | Vero | 20 µM | inhibition | 40%
C=C[C@@](C)(/C=C/c1ccc(O)cc1)CCC=C(C)C | Severe acute respiratory syndrome coronavirus 2 | cytopathic effect | Vero C1008 | 0.7812 µM | inhibition | 0%
CC[C@H](C)[C@H](NC(=O)[C@H](CC(C)C)NC(=O)[C@H](Cc1c[nH]c2ccccc12)NC(=O)[C@H](CCC(N)=O)NC(=O)[C@@H](NC(=O)[C@H](Cc1ccccc1)NC(=O)[C@H](C)NC(=O)[C@H](CCCCNC(=O)COCCOCCNC(=O)COCCOCCNC(=O)CC[C@H](NC(=O)CCCCCCCCCCCCCCCCCCC(=O)O)C(=O)O)NC(=O)[C@H](CCC(N)=O)NC(=O)[C@H](C)NC(=O)[C@@H](NC(=O)[C@H](CCCCN)NC(=O)[C@H](CC(=O)O)NC(=O)[C@H](CC(C)C)NC(=O)C(C)(C)NC(=O)[C@@H](NC(=O)[C@H](CO)NC(=O)[C@H](Cc1ccc(O)cc1)NC(=O)[C@H](CC(=O)O)NC(=O)[C@H](CO)NC(=O)[C@@H](NC(=O)[C@H](Cc1ccccc1)NC(=O)[C@@H](NC(=O)CNC(=O)[C@H](CCC(=O)O)NC(=O)C(C)(C)NC(=O)[C@@H](N)Cc1ccc(O)cc1)[C@@H](C)O)[C@@H](C)O)[C@@H](C)CC)[C@@H](C)CC)C(C)C)C(=O)N[C@@H](C)C(=O)NCC(=O)NCC(=O)N1CCC[C@H]1C(=O)N[C@@H](CO)C(=O)N[C@@H](CO)C(=O)NCC(=O)N[C@@H](C)C(=O)N1CCC[C@H]1C(=O)N1CCC[C@H]1C(=O)N1CCC[C@H]1C(=O)N[C@@H](CO)C(N)=O | – | – | healthy subjects, single ascending dose | 1.0 mg, baseline | serum AST | 22.2 ± 5.4 U/L
Cn1c(C(=O)Nc2ccc3c(c2)OCCO3)cc2c(=O)n3ccccc3nc21 | Severe acute respiratory syndrome coronavirus 2 | viral replication, inhibitor, qPCR | Vero C1008 | 1 µM | inhibition | 94.1%
Cn1cnc(Cn2c(=O)[nH]/c(=N\c3cc4cn(C)nc4cc3Cl)n(Cc3cc(F)c(F)cc3F)c2=O)n1 | – | – | human, moderate renal impairment | oral, 375 mg | anaemia TEAE, Mild severity | 0%
CC(=O)c1cccc(NC(=O)c2cc3c(=O)n4ccccc4nc3n2C)c1 | Severe acute respiratory syndrome coronavirus 2 | viral replication, inhibitor, qPCR | Vero C1008 | 10 µM | inhibition | 97.1%
Nc1ncnc2c1ncn2[C@@H]1O[C@H](CSCc2ccc3ccccc3c2)[C@@H](O)[C@H]1O | Severe acute respiratory syndrome coronavirus 2 | viral replication, outcome no inhibition, N-protein immunofluorescence | Calu-3 | 200 µM | inhibition | no inhibition

For quick reference, copied from above:
SMILES | target or system | test | system | conditions | quantity | result
CC(=O)c1cc([N+](=O)[O-])c(Sc2cccc(Cl)c2Cl)s1 | Replicase polyprotein 1ab, main protease (rep, Severe acute respiratory syndrome coronavirus 2, UniProt P0DTD1) | viral replication, Gluc reporter | SARS-CoV-2 | 20 µM | inhibition | -6.74%
